# Experimental data collected from several papers.
# Compare with care: the assays were run in different laboratories. ± marks the error that the study gave.
Structure (SMILES),system,setting,tissue uptake
COc1cc2ncnc(Oc3cccc(N[11C](=O)Nc4cc(C(C)(C)C(F)(F)F)on4)c3)c2cc1OC,"Balb/c nude mouse, female, A375 melanoma xenograft, brain","6.6 MBq, 30 min",0.13 %ID/g
N=C(N)NCc1ccc(C(=O)NCCCC[C@H](NC(=O)CCCCCCC(=O)NCCCC[C@H](NC(=O)N[C@@H](CCC(=O)O)C(=O)O)C(=O)O)C(=O)O)cc1[131I],"SCID mouse, PC-3 xenografts, heart",2 h,0.27 ± 0.14 %ID/g
COc1cc2ccnc(Cc3ccc(O[11CH3])c(OC)c3)c2cc1OC,"Sprague-Dawley rats, muscle","intravenous, 0.5 h",0.071 ± 0.009 %ID/g
C=Cc1cc(O)cc2nc(-c3ccc(O)c([76Br])c3)oc12,"female C57BL/6 mouse, ovaries","3 h, high dose",0.1 ± 0.02 %ID/g
N=C(N)NCc1ccc(C(=O)NCCCC[C@H](NC(=O)N[C@@H](CCC(=O)O)C(=O)O)C(=O)O)cc1[211At],"SCID mouse, PC-3 xenografts, brain",14 h,0.06 ± 0.01 %ID/g
CCNc1cc2[o+]c3cc(NCC)c(C)cc3c(-c3ccccc3C(=O)OCCOCC[18F])c2cc1C,"rat, lung",120 min,0.82 ± 0.19 %ID/g
O=C(O)CC[C@H](NC(=O)O[C@@H](CCCCNC(=O)c1ccc([18F])cc1)C(=O)O)C(=O)O,"mouse, PC-3 PIP/flu xenografts, fat",30 min,1.23 ± 1.88 %ID/g
N=C(N)NCc1ccc(C(=O)NCCCC[C@H](NC(=O)N[C@@H](CCC(=O)O)C(=O)O)C(=O)O)cc1[131I],"SCID mouse, PC-3 xenografts, heart",14 h,0.03 ± 0.02 %ID/g
CN[C@](C)(C[18F])C(=O)O,"SCID mouse U87 xenograft, liver","30 min, post injection",8.1 ± 1.6 %ID/g
"O=C(c1ccc(F)cc1)C1CCN(C2Cc3c(cccc3OCC[18F])CC2O)CC1 (single isomer, unassigned; (-))","Sprague-Dawley rat, male, whole brain",120 min post-injection,0.409 ± 0.016 %ID/g
